Earlier results, collected from citations in different studies.
Compare with care: the assays were run in different laboratories. pIC50: −log10 of the molar value.
Organism: Plasmodium falciparum

Compound = O=C(/C=C/c1cccc(S(=O)(=O)Nc2ccccc2)c1)NO; scale = reference: IC50 Dd2 over IC50 3D7; quantity = resistance index; value = 1.1
Compound = O=C(NCCN1CCCC1)c1cc(-c2ccc(CN3CCOCC3)cc2)nc2ccc(F)cc12; test system = 3D7 I183T mutant; scale = reference: parental strain; quantity = IC50 fold increase; value = 5 fold
Compound = Cc1nc(C)c(-c2ccc(Oc3ccc(OC(F)(F)F)cc3)cc2)c(OC(=O)N(CCNC(C)C)C(C)C)c1Br; test = whole cell extended time; test system = 3D7; setting = 72 h; quantity = pIC50; value = 6.77
Compound = N/C(CC(O)c1cc2c(F)cc(F)cc2c2cc(C(F)(F)F)ccc12)=N\c1ccc(F)cc1 (stereo not drawn); test = parasite growth; test system = Dd2 PfeEF2 mutant (DDD107498-resistant); quantity = pIC50; value = 7.80
Compound = CC(C)(C)NCc1ccc(Nc2ccnc3cc(Cl)ccc23)cc1O; test = parasite growth; test system = 3D7; setting = literature value; quantity = pIC50; value = 7.95
Compound = Cc1c(C2(c3ccc(C(F)(F)F)nc3)CC2)c[nH]c1C(=O)N[C@H](C)c1nc[nH]n1; test system = 3D7^0087/N9, humanized SCID mouse, plasma; quantity = unbound plasma concentration for ED90; value = 170 nM
Compound = CNCCN(C)C(=O)Oc1c(Cl)c(C)nc(C)c1-c1ccc(Oc2ccc(OC(F)(F)F)cc2)cc1; test = whole cell extended time; test system = 3D7; setting = 72 h; quantity = pIC50; value = 6.89
Compound = Cc1cc(Nc2ccc(S(F)(F)(F)(F)F)cc2)n2nc(C(C)(F)F)nc2n1; test system = 3D7^0087/N9, humanized SCID mouse, blood; setting = dose not given; quantity = average blood concentration for ED90; value = 1500 nM
Compound = Cc1cc(O)cc2c(C3CCN(CC4CCN(C(=O)/C=C/c5ccc(Cl)c(Cl)c5)CC4)CC3)c[nH]c12; test = whole cell extended time; test system = 3D7; setting = 72 h; quantity = pIC50; value = 5.96

A few entries again:
Compound = CNCCN(C)C(=O)Oc1c(Cl)c(C)nc(C)c1-c1ccc(Oc2ccc(OC(F)(F)F)cc2)cc1; test = whole cell extended time; test system = 3D7; setting = 72 h; quantity = pIC50; value = 6.89
